# Earlier results as cited in several papers.
# Lines come from different studies, so protocols differ. Numbers after ± are the reported error.
Structure (SMILES),tested on,test,system,setting,measurement,value
CC(=O)Nc1ccc(O)cc1,CYP2C19,substrate,,,Vmax,1.14 pmol/min/pmol
FC(F)(F)C(F)(F)C(F)(F)C(F)(F)C(F)(F)C(F)(F)C(F)(F)C(F)(F)C(F)(F)C(F)(F)F,CYP2C19,,,concentration not given,activity,inactive
CO[C@H]1/C=C/O[C@@]2(C)Oc3c(C)c(O)c4c(O)c(c(/C=N/N5CCN(C)CC5)c(O)c4c3C2=O)NC(=O)/C(C)=C\C=C\[C@H](C)[C@H](O)[C@@H](C)[C@@H](O)[C@@H](C)[C@H](OC(C)=O)[C@@H]1C,CYP2C19,"induction, inducer",,,EC50,450 nM
FC(F)(F)C(F)(F)C(F)(F)C(F)(F)C(F)(F)C(F)(F)C(F)(F)C(F)(F)Br,CYP2C19,inhibitor,,Tox21 screening,IC50,inactive
Nc1cc(C(F)(F)F)c(-c2nc(N3CCOCC3)nc(N3CCOCC3)n2)cn1,DLD-1,,,,GI50,1330 nM
C=C(C)C(=O)OCCC(F)(F)C(F)(F)C(F)(F)C(F)(F)C(F)(F)C(F)(F)F,CYP2C19,,,concentration not given,activity,inactive
COC(=O)[C@H](c1ccccc1Cl)N1CCc2sccc2C1,CYP2C19,,,,Km,0.05 µM
COc1ccc2nc([S@@+]([O-])Cc3ncc(C)c(OC)c3C)[nH]c2c1,CYP2C19,mechanism-based inhibitor,,,unbound fraction in microsomes,1
C=C[C@@H]1C[C@]1(NC(=O)[C@@H]1C[C@@H]2CN1C(=O)[C@H](C(C)(C)C)NC(=O)O[C@@H]1C[C@H]1CCCCCc1nc3ccc(OC)cc3nc1O2)C(=O)NS(=O)(=O)C1CC1,CYP2C19,inhibitor,human liver microsomes,,IC50,> 100000 nM
COc1ccc2nc([S@+]([O-])Cc3ncc(C)c(OC)c3C)[nH]c2c1,CYP2C19,5-hydroxylation,,in vitro,fraction of intrinsic clearance,~98%
CO[C@H]1/C=C/O[C@@]2(C)Oc3c(C)c(O)c4c(O)c(c(/C=N/N5CCN(C)CC5)c(O)c4c3C2=O)NC(=O)/C(C)=C\C=C\[C@H](C)[C@H](O)[C@@H](C)[C@@H](O)[C@@H](C)[C@H](OC(C)=O)[C@@H]1C,CYP2C19,inducer,,,EC50,450 nM
N#CCNC(=O)c1ccc(-c2ccnc(Nc3ccc(N4CCOCC4)cc3)n2)cc1,CYP2C19,,human hepatocytes,,contribution to metabolism,19%
CCNS(=O)(=O)C(F)(F)C(F)(F)C(F)(F)C(F)(F)C(F)(F)C(F)(F)C(F)(F)C(F)(F)F,CYP2C19,inhibitor,,,IC50,51200 ± 29700 nM
CO[C@H]1/C=C/O[C@@]2(C)Oc3c(C)c(O)c4c(O)c(c(/C=N/N5CCN(C)CC5)c(O)c4c3C2=O)NC(=O)/C(C)=C\C=C\[C@H](C)[C@H](O)[C@@H](C)[C@@H](O)[C@@H](C)[C@H](OC(C)=O)[C@@H]1C,CYP2C19,enzyme induction,,Simcyp compound file,EC50,450 nM
O=C1Nc2ccc(Cl)cc2[C@@](C#CC2CC2)(C(F)(F)F)O1,CYP2C19,competitive inhibitor,human liver microsomes,,IC50,16000 nM

# A few entries again:
Structure (SMILES),tested on,test,system,setting,measurement,value
Nc1cc(C(F)(F)F)c(-c2nc(N3CCOCC3)nc(N3CCOCC3)n2)cn1,DLD-1,,,,GI50,1330 nM
